Results from different studies.
Lines come from different studies, so protocols differ. Values joined by “and” are separate records of one study, mostly repeats; a detail may differ.
Target: Protein kinase C alpha type (PRKCA, Homo sapiens, UniProt P17252)

Cc1cccc(O[C@H]2CCC[C@@H](C(C)CNCc3ccncc3)C2)c1 (relative stereo) has an inhibition of 1% (enzyme activity; 1 µM).
CN1CC[C@@H](COc2cnc(C#N)cc2-c2ccn3nc(NC(=O)C4CC4)cc3c2)C1 gave an inhibition of 3% (enzyme activity, inhibitor; 1 µM).
With C=CC(=O)N1Cc2nc(-c3cc(-c4cc(Cl)cnc4Cl)c(F)cc3F)n(-c3ccncn3)c2C1 the inhibition was 3.9% (cell-free assay; 1 µM).
With NC(=O)[C@@H](O)C[C@H]1CCc2sc3ncnc(O[C@H]4CC[C@H](N5CCOCC5)CC4)c3c21 the inhibition was 7% (enzyme activity, inhibitor; 10 µM).
With Nc1ncc(-c2cc(-c3cnn(CC(F)(F)F)c3)ncc2F)nc1C(=O)NC1CNCC(F)C1 (centres unmarked) the remaining activity was 87.9% (enzyme activity; 1 µM; relative to: DMSO control).
With C=CC(=O)Nc1cccc(-c2cnc3[nH]cc(C(=O)NC(C)(C)C)c3n2)c1 the inhibition was 35% and 33% (kinase activity; 0.1 µM).
For COc1c(OCCCN2CCOCC2)ccc2c1N=C(NC(=O)c1cnc(N)nc1)N1CCN=C21, the remaining activity was 120% (kinase activity, inhibitor; 1 µM; relative to: untreated control).
Cc1cccc(-c2ccc3nc(NC(=O)C4CCCCC4)nn3c2)c1 gave a remaining activity of 110% (enzyme activity, Dundee kinase panel; 10 µM).
For CN1CCN(Cc2ccc(-c3ccc(CO[C@H]4CCC[C@@H]4NC(=O)c4cc(-c5cnn(C)c5)cnc4N)cc3)cc2)CC1, the inhibition was 14% (enzyme activity, inhibitor; 0.1 µM).
Cc1cccc(-c2ccc3nc(NC(=O)C4CCCO4)nn3c2)c1 (centres unmarked) has a remaining activity of 87% (enzyme activity, Dundee kinase panel; 10 µM).
COc1ccc(O)cc1-c1c[nH]c2ncc(-c3cncc(C(=O)N(C)C)c3)cc12 has an inhibition of -0.71% (binding, competition with immobilised ligand; 0.2 µM).
The inhibition of COc1ccc(C(=O)/C=C/c2ccccc2-c2c[nH]c3ccc(C#N)cc23)c(O)c1 is reported as 10% (enzyme activity, inhibitor; 20 µM).
For CNC(=O)C[C@H](Cc1ccc(C#N)cc1)NC(=O)c1cc(-c2ccc(CN[C@H](C)c3ccc(C)cc3)o2)ccc1Cl, “activity vs control” read 96% (enzyme activity, inhibitor; 1 µM).
Cc1[nH]nc2c1N=C(c1ccccc1Cl)c1cnc(N3CCOCC3)cc1N2 gave an inhibition of -0.8% (enzyme activity, inhibitor; 0.5 µM).

For quick reference, copied from above:
With C=CC(=O)N1Cc2nc(-c3cc(-c4cc(Cl)cnc4Cl)c(F)cc3F)n(-c3ccncn3)c2C1 the inhibition was 3.9% (cell-free assay; 1 µM).
With NC(=O)[C@@H](O)C[C@H]1CCc2sc3ncnc(O[C@H]4CC[C@H](N5CCOCC5)CC4)c3c21 the inhibition was 7% (enzyme activity, inhibitor; 10 µM).
